Measurements collected from several papers.
Numbered parts are unrelated; each lists some results of a single study. “And” joins repeats or separate records; there may be more than shown.
Sequence of UniProt P51812 (whole entry, looked up): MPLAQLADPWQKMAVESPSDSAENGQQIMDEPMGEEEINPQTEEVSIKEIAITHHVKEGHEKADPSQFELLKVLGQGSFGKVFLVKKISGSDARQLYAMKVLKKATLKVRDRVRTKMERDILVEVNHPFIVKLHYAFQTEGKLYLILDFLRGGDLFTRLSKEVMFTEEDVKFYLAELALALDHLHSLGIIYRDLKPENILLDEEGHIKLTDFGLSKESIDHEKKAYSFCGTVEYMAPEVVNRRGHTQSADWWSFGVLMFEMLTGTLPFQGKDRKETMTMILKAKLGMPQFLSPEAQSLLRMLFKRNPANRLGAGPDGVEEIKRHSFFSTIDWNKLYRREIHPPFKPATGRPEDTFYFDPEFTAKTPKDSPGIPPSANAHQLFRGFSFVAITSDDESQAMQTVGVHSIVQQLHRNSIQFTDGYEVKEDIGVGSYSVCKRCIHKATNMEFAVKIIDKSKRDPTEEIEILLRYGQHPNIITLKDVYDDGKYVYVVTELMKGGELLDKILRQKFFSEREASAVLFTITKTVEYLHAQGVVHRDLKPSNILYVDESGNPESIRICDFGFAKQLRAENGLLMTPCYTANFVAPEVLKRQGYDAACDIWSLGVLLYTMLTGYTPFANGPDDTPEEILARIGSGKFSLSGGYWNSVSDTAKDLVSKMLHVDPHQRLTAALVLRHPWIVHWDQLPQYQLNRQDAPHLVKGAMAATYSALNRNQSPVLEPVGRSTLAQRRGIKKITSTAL
Sequence of UniProt P53355 (whole entry, looked up): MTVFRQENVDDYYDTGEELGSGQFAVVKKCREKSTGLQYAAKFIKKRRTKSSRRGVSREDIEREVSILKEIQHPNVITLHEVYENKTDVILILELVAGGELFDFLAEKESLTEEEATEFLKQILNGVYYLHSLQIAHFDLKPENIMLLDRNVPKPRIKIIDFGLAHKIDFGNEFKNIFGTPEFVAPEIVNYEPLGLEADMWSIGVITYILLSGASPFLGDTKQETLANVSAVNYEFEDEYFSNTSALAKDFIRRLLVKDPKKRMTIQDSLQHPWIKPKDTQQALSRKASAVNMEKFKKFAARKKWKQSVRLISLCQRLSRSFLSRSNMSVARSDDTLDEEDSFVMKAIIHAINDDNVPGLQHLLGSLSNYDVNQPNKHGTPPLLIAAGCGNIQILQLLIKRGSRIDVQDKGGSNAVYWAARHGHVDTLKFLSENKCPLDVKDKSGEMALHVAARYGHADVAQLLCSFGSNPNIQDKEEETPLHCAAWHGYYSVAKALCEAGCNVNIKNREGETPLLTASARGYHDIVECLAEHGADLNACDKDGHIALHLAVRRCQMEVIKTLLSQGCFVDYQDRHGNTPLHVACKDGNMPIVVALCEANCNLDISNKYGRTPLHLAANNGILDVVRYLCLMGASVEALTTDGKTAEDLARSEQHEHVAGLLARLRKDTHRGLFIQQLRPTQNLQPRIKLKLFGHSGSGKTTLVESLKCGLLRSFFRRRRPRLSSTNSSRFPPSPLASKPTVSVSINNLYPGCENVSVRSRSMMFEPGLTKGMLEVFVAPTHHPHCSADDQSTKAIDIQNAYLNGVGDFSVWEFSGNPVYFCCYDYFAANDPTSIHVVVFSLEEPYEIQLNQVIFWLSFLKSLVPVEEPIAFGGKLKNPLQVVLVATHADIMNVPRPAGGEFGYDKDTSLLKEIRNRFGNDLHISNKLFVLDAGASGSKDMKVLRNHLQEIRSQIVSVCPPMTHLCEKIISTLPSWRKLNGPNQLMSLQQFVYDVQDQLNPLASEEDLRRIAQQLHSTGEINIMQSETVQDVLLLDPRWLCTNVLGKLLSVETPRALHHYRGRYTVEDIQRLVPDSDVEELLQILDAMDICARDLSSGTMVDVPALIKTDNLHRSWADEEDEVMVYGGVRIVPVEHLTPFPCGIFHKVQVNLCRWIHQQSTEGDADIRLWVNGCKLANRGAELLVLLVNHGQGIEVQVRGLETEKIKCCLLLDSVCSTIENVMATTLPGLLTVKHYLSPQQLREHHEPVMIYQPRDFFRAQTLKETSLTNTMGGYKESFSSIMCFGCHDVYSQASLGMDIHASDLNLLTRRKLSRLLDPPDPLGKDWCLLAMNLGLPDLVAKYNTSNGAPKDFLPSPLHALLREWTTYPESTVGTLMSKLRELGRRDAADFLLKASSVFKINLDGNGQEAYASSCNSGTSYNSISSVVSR
Sequence of UniProt Q16566 (whole entry, looked up): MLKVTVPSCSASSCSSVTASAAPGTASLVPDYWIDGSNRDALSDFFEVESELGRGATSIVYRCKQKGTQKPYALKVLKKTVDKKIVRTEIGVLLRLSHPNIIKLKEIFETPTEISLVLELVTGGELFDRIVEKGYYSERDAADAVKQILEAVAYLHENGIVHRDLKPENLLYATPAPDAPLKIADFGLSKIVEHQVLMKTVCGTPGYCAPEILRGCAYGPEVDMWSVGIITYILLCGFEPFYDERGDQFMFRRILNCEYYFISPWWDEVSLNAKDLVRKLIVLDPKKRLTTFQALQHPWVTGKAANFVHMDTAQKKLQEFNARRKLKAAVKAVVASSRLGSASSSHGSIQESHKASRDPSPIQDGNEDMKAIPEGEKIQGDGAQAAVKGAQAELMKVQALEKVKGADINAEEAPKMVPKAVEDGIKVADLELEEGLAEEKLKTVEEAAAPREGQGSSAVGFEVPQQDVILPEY

Study 1 — tested at: 1 µM
SMILES: CC[C@@]1(c2cccc(C(F)(F)F)c2)C2=C(Nc3n[nH]cc31)[C@H](F)C(C)(C)CC2=O (single isomer, unassigned)
target | test | how to read | remaining binding [%]
Epidermal growth factor receptor (EGFR, Homo sapiens, UniProt P00533, A750P/del747-749) | binding, competition with immobilised ligand |  | 65
Fibroblast growth factor receptor 1 (FGFR1, Homo sapiens, UniProt P11362) | kinase binding, KINOMEscan | baseline: DMSO control | 100
Ephrin type-A receptor 2 (EPHA2, Homo sapiens, UniProt P29317) | kinase binding, KINOMEscan | baseline: DMSO control | 100
Serine/threonine-protein kinase MRCK gamma (CDC42BPG, Homo sapiens, UniProt Q6DT37) | KINOMEscan |  | 99
Tyrosine-protein kinase ABL1, phosphorylated (ABL1, Homo sapiens, UniProt P00519, Q252H) | binding, competition with immobilised ligand |  | 60
Citron Rho-interacting kinase (CIT, Homo sapiens, UniProt O14578) | kinase binding, KINOMEscan | baseline: DMSO control | 99
Calcium/calmodulin-dependent protein kinase type IV (CAMK4, Homo sapiens, UniProt Q16566) | kinase binding, KINOMEscan | baseline: DMSO control | 100
Mitogen-activated protein kinase kinase kinase 3 (MAP3K3, Homo sapiens, UniProt Q99759) | binding, competition with immobilised ligand |  | 97
Death-associated protein kinase 1 (DAPK1, Homo sapiens, UniProt P53355) | binding, competition with immobilised ligand |  | 77
Receptor-type tyrosine-protein kinase FLT3 (FLT3, Homo sapiens, UniProt P36888) | binding, competition with immobilised ligand |  | 100
Ribosomal protein S6 kinase alpha-3, N-terminal kinase domain (RPS6KA3, Homo sapiens, UniProt P51812) | kinase binding, KINOMEscan | baseline: DMSO control | 100
Dual serine/threonine and tyrosine protein kinase (DSTYK, Homo sapiens, UniProt Q6XUX3) | binding, competition with immobilised ligand |  | 75
Mitogen-activated protein kinase 7 (MAPK7, Homo sapiens, UniProt Q13164) | kinase binding, KINOMEscan | baseline: DMSO control | 100

Study 2 — method: immunoblotting; cell line: HCC1569; tested at: 1 µM
Structure (SMILES): Cc1ccc(O)c(C)c1-c1cnc2[nH]c(-c3cnc(N4CCC(CN5CCN(c6ccc7c(c6)C(=O)N(C6CCC(=O)NC6=O)C7=O)CC5)CC4)nc3)cc2c1C#N (stereo not drawn)
Target: Membrane-associated tyrosine- and threonine-specific cdc2-inhibitory kinase (PKMYT1, Homo sapiens, UniProt Q99640)
Sequence of UniProt Q99640 (whole entry, looked up): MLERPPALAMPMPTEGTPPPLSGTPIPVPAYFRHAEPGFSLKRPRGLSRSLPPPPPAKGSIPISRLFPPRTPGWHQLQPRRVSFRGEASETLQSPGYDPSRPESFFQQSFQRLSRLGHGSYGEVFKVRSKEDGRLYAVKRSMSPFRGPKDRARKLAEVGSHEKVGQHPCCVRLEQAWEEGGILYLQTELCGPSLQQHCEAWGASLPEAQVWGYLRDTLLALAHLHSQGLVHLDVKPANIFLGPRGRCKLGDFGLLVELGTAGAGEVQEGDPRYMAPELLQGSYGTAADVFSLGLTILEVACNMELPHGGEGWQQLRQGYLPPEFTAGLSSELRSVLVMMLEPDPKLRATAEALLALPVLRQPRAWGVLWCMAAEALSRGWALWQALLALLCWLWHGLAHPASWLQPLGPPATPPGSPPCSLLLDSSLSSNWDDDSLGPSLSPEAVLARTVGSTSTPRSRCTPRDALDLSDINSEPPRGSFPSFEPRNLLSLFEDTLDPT
setting | remaining protein level [%]
2 h | 33
16 h | 9.06
24 h | 7.07
8 h | 20.1

Study 3 — route: intravenous
Compound: Cc1ncsc1-c1ccc(C(CO)NC(=O)C2CC(O)CN2C(=O)C(C(C)C)n2cc(-c3ccc(COc4c(-c5c(C)c(F)cc6[nH]ncc56)c(C5CC5)cc5c(N6CC7CC6CN7)nc(OC6CCOCC6)nc45)cc3)nn2)cc1 (stereo not drawn)
system | setting | concentration
male Balb/c nu/nu mouse, PK-59 xenograft, plasma | 30 mg/kg, 6 h | 611 ng/mL and 1230 ng/mL and 1100 ng/mL
male Balb/c nu/nu mouse (PK-59 xenograft), tumor | 10 mg/kg, 2 h | 441 ng/g
mouse (PK-59 xenograft), tumor | 30 mg/kg, 48 h | 770 ng/g
male Balb/c nu/nu mouse (PK-59 xenograft), plasma | 10 mg/kg, 24 h | 17.6 ng/mL
mouse, PK-59 xenograft, tumor | 10 mg/kg, 72 h | 118 ng/g and 153 ng/g
mouse (PK-59 xenograft), pancreas | 30 mg/kg, 72 h | 100 ng/g
mouse, PK-59 xenograft, tumor | 30 mg/kg, 72 h | 900 ng/g and 1110 ng/g
male Balb/c nu/nu mouse (PK-59 xenograft), pancreas | 30 mg/kg, 2 h | 1060 ng/g

Study 4 — observed: thermal unfolding; method: differential scanning fluorimetry; tested at: 5.5 µM; reading: higher = more unfolded
Compound: C[C@@H]1CN(c2ccc(-c3cc(C(=O)NCCOCCOCCOCCOCCOCCOCCNC(=O)/C=C/c4[nH]cc(C(=O)N[C@@H](CC(N)=O)c5ccc(F)c(Cl)c5)c4-c4ccc(Cl)cc4F)ccc3F)cc2NC(=O)c2ccc(F)cc2C(F)(F)F)C[C@H](C)N1C
WDR5: WD repeat-containing protein 5 (WDR5, Homo sapiens, UniProt P61964)
DCAF1: DDB1- and CUL4-associated factor 1 (DCAF1, Homo sapiens, UniProt Q9Y4B6)
Sequence of UniProt Q9Y4B6 (whole entry, looked up): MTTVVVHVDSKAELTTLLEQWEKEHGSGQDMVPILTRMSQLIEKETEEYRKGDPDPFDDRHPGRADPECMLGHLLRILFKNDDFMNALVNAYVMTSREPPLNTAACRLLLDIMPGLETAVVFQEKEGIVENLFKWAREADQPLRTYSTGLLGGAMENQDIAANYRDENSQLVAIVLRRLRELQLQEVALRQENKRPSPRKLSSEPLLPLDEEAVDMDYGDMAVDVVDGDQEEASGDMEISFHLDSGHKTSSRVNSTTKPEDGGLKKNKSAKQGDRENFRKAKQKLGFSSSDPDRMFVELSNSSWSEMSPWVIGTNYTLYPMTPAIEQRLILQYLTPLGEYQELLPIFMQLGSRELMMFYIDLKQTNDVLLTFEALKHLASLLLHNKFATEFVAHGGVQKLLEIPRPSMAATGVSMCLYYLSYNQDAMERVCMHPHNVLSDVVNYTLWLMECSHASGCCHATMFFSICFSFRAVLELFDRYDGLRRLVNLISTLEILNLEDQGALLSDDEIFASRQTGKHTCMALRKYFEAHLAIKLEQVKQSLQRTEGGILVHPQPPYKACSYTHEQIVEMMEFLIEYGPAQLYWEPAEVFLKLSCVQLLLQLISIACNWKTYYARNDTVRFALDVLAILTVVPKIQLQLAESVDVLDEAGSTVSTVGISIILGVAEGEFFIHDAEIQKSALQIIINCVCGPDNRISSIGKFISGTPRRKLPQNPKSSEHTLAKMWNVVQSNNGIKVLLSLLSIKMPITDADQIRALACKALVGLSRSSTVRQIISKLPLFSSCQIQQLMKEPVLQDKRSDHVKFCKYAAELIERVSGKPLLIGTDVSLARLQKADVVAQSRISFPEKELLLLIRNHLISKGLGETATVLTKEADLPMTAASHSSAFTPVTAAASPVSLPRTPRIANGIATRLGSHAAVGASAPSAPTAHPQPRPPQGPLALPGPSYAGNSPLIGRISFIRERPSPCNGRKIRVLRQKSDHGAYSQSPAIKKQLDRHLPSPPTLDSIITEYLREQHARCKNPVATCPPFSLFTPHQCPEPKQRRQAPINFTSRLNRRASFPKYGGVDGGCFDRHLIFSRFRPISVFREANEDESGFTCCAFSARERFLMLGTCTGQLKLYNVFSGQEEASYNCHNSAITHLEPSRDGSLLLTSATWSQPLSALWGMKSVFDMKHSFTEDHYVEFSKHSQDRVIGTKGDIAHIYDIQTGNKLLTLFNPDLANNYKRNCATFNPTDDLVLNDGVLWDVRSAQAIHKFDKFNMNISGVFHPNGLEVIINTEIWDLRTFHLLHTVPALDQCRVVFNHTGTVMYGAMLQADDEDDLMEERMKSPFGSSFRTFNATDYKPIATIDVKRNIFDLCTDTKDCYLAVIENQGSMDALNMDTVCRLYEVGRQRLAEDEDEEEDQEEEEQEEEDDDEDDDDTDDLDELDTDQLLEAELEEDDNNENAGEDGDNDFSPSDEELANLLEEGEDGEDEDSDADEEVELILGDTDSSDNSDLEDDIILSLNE
target | setting | SYPRO Orange fluorescence
WDR5 | 92.61 °C | 51000 a.u.
WDR5 | 43 °C | 14600 a.u.
WDR5 | 87.81 °C | 58100 a.u.
DCAF1 | 53.81 °C | 23900 a.u.
WDR5 | 87.61 °C | 58400 a.u.
DCAF1 | 57.61 °C | 36800 a.u.
DCAF1 | 79.01 °C | 40600 a.u.

Study 5 — route: intrathecal
SMILES: COc1cc(C(=O)OCCCN2CCCN(CCCOC(=O)c3cc(OC)c(OC)c(OCc4ccc([N+](=O)[O-])cc4)c3)CC2)cc(OC)c1OC
system | setting | licking duration
female mouse, formalin pain | 100 nmol, 0 to 10 min | 162 s and 191 s and 180 s and 193 s
male mouse, formalin pain | 10 nmol, 0 to 5 min | 214 s and 191 s and 158 s and 199 s
female mouse, formalin pain | 1 nmol, 0 to 10 min | 196 s and 268 s and 207 s and 203 s
male mouse, formalin pain | 100 nmol, 0 to 5 min | 192 s and 148 s and 176 s and 144 s

Study 6 — observed: binding; mode: competitor; method: NanoBRET; cell line: HEK293
SMILES: C=CC(=O)N1CCN(c2nc(OC[C@@H]3CCCN3C)nc3c2CCN(c2cccc4cccc(C)c24)C3)C[C@@H]1CC#N
KRAS G12D: GTPase KRas (KRAS, Homo sapiens, UniProt P01116, G12D)
HRAS: GTPase HRas (HRAS, Homo sapiens, UniProt P01112)
KRAS Q61R: GTPase KRas (KRAS, Homo sapiens, UniProt P01116, Q61R)
target | setting | normalized BRET
KRAS G12D | 39.1 nM | 106%
HRAS | 9.14 nM | 92.5% and 98.8%
HRAS | 625 nM | 118%
HRAS | 611 pM | 104%
KRAS Q61R | 741 nM | 98.1% and 81.3% and 102%
HRAS | 2.44 nM | 107%
KRAS G12D | 2.5 µM | 83.7%
GTPase KRas (KRAS, Homo sapiens, UniProt P01116, Q61H) | 27.4 nM | 96.5% and 93% and 88.9%
GTPase KRas (KRAS, Homo sapiens, UniProt P01116, G13D) | 2.22 µM | 42.2% and 31.2% and 39.1%
KRAS Q61R | 2.22 µM | 106% and 108% and 87.3%

Study 7 — cell line: Gaucher fibroblasts L444P/L444P; method: 4-MUG hydrolysis, cell lysate; tested at: 0.1 µM; baseline: DMSO
Structure (SMILES) | GCase activity
Ic1ccc(Nc2nc(NCCc3c[nH]c4ccccc34)nc(NCCN3CCOCC3)n2)cc1 | 101% and 102% and 94% and 99.7%
Ic1ccc(Nc2nc(NCCN3CCCCC3)nc(N3CCOCC3)n2)cc1 | 96.6% and 103% and 98% and 114% and 99.3%
Ic1ccc(Nc2nc(NCCN3CCOCC3)nc(N3CC4CC3CO4)n2)cc1 (stereo not drawn) | 99.2% and 106% and 102% and 97.4% and 98.9% and 94.2%
COc1ccc(Nc2nc(NCCN3CCOCC3)nc(N3CCOCC3)n2)cc1 | 93% and 94.5% and 110% and 91.1% and 103%
CCOc1ccc2nc(Sc3nc(NCCN4CCOCC4)nc(Nc4ccc(I)cc4)n3)sc2c1 | 90.9% and 87.4% and 105% and 95.6%
Fc1ccc(Nc2nc(NCCN3CCOCC3)nc(N3CCOCC3)n2)cc1 | 99.7% and 97.3% and 95% and 95.9% and 98.2% and 102%
Ic1ccc(Nc2nc(NCCN3CCOCC3)nc(N3CCCC3)n2)cc1 | 100% and 89.1% and 99.2% and 103%
CCN(CC)c1nc(NCCN2CCOCC2)nc(Nc2ccc(I)cc2)n1 | 93% and 100% and 84.8% and 104% and 96.6%
